Results from different studies.
Each line is one published result; not all experiments were run side by side. ± marks the error that the study gave.
HCRTR1: Orexin/Hypocretin receptor type 1 (HCRTR1, Homo sapiens, UniProt O43613)
UniProt O43613, sequence (whole entry, looked up): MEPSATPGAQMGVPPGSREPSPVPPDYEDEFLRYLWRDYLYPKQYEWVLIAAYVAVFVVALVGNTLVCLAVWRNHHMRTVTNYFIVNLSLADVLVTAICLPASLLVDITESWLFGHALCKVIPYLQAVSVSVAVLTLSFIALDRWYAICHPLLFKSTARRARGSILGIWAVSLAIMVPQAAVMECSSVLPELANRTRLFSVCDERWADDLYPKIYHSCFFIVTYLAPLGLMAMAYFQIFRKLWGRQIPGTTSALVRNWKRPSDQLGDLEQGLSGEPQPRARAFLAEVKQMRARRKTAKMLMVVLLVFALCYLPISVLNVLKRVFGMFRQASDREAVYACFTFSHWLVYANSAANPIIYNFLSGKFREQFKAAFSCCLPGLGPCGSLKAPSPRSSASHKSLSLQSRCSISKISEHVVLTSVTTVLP
UniProt P10632, sequence (whole entry, looked up): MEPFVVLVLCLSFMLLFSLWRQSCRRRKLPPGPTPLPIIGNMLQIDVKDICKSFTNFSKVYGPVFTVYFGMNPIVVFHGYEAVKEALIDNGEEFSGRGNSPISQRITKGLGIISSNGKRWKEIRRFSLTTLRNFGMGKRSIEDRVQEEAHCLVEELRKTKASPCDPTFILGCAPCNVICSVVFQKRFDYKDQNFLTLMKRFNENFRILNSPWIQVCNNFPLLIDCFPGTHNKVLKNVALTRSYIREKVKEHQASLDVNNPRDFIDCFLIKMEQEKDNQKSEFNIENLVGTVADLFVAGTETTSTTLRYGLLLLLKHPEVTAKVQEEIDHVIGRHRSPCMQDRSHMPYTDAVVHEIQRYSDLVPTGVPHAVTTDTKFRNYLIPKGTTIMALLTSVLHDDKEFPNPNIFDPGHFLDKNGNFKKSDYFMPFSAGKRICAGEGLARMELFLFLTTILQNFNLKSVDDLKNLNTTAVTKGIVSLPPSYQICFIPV

CC(=O)Nc1cccc(OCc2nnc(SCc3ccccc3F)o2)c1
immobility duration decrease (forced swimming test; mice; 40 mg/kg, 0.5 h; reference: control): 45.6%

CC(C)(Sc1ccncc1-c1ccc(C#N)c2ccccc12)C(=O)O
fractional uric acid excretion (male gout patients, urine; 300 mg, 0 to 24 h, with: verinurad 10 mg alone or combined; reference: baseline): 77.4%

Cc1nnc(-c2cc(C(=O)N3CCC(c4ccc(C#N)cc4)CC3)c(C)cc2C2CCC2)[nH]1
disease control rate (patients with advanced solid tumours; dose not given, monotherapy RECIST): 42%

CCN(CC)c1cc(CC2c3cc(OC)c(OC)cc3CCN2CC(=O)NCc2ccccc2)ccc1OC (stereo not drawn)
Kb (HCRTR1; calcium signal, antagonist, fluorescence): 0.208 µM

CC(C)[C@H](NC(=O)[C@@H]1CCCN1C(=O)[C@H](CCCNC(=N)N)NC(=O)[C@H](CS)NC(=O)[C@H](Cc1c[nH]c2ccccc12)NC(=O)[C@H](CCCNC(=N)N)NC(=O)[C@@H](Cc1ccccc1)NC(=O)[C@H](Cc1c[nH]cn1)NC(=O)[C@H](CCC(=O)O)NC(=O)[C@H](CS)NC(=O)[C@H](CS)NC(=O)[C@H](CCCCN)NC(=O)[C@@H]1CC(=O)N[C@@H](CCCNC(=N)N)C(=O)N[C@@H](C)C(=O)N[C@@H](CC(=O)O)C(=O)N[C@H](Cc2ccc(O)cc2)C(=O)N1)C(N)=O [technetium-99m labelled]
tissue uptake (C57 mice, tumor; intravenous, 0.037 MBq, 2 h): 19.9 ± 4.02 %ID/g

O=c1cc(N2CCOCC2)oc2c(-c3ccccc3)cccc12
Akt phosphorylation (Western blot; mouse myocardial infarction, myocardium; intraperitoneal, 1.5 mg/kg/day, with: PEG-exendin-4): inhibited

CS/C(S)=N/CCCC[S+](C)[O-] (racemic)
mRNA fold change (RT-PCR, refers to: Gad2; rat, colon; oral gavage, 200 mg/kg, 96 h, dosed for four days; reference: vehicle): 9.18

CC(C)C[C@H](NC(=O)[C@H](CO)NC(=O)[C@H](CCCNC(=N)N)NC(=O)[C@H](CC(=O)O)NC(=O)[C@H](CCC(=O)O)NC(=O)[C@H](C)NC(=O)[C@@H]1CCCN1C(=O)[C@H](C)NC(=O)[C@H](CCC(=O)O)NC(=O)[C@@H]1CCCN1C(=O)[C@@H]1CCCN1)C(N)=O
dopamine level (HPLC-EC; F344 rat, normal, striatum, wet tissue, both hemispheres; intranasal, 300 µg, 5 days/week for 3 weeks): 11900 ± 904 ng/g

COCCc1ccc(OCC(O)CNC(C)C)cc1 (stereo not drawn)
cAMP level (rats, adrenaline arrhythmia, plasma; intragastric, 2.57 g/kg daily, 14 days): 7.61 ± 0.28 nmol/L

O=C1CSC(N=C2c3ccccc3-c3nc4cc(F)ccc4nc32)=N1
blood glucose (mouse, STZ-induced diabetes; oral, 25 mg/kg, day 3): 311 ± 19.5 mg/dL

COc1ccc(CC2c3cc(OC)c(OC)cc3CCN2CC(=O)NCc2ccccc2)cc1NCc1ccccc1 (stereo not drawn)
Kb (HCRTR1; calcium signal, antagonist, fluorescence): > 10 µM

O=C(/C=C(/C=C/c1cccnc1)NCCO)/C=C/c1cccnc1
EC50 (DPPH scavenging): > 200 µM

CC1=N[C@]2(C(=O)CO)[C@@H](C[C@H]3[C@@H]4C[C@@H](O)C5=CC(=O)C=C[C@]5(C)[C@H]4[C@@H](O)C[C@@]32C)O1
IC50 (Cytochrome P450 2C8 (CYP2C8, Homo sapiens, UniProt P10632); pooled human liver microsomes; 30 min preincubation, with: paclitaxel probe and NADPH): > 50 µM

COc1ccc2c(c1)c(CC(=O)O)c(C)n2C(=O)c1ccc(Cl)cc1
cytokine level (multiplex bead immunoassay, refers to: IL-1α; CD-1 mice, serum; ip, 20 mg/kg, three-injection regimen, with: LPS 3 mg/kg): 433 ± 129 pg/mL

CCCC(CCC)C(=O)O
GTCS with tonic hindlimb extension (Scn1a+/- mouse, hyperthermia-primed; oral in chow, dose not given; reference: untreated): decreased

For quick reference, copied from above:
O=C1CSC(N=C2c3ccccc3-c3nc4cc(F)ccc4nc32)=N1
blood glucose (mouse, STZ-induced diabetes; oral, 25 mg/kg, day 3): 311 ± 19.5 mg/dL
